Published values pooled from the literature.
Compare with care: the assays were run in different laboratories. ± gives the spread as reported.

| SMILES | target or system | assay | test system | conditions | how to read | measurement | result |
| --- | --- | --- | --- | --- | --- | --- | --- |
| C=CC(=O)N1CCC(c2ccc(C(N)=O)c(-c3ccc(Oc4ccccc4)cc3)n2)CC1 | – | CTCAE 4.03 | patients with relapsed/refractory MCL | oral, dose not given, total | – | incidence of grade ≥3 TRAEs | 6.3% |
| NC1(C(=O)N[C@@H](CCO)c2ccc(Cl)cc2)CCN(c2nc[nH]c3nccc2-3)CC1 | – | – | metastatic CRPC patients | dose not given, grade 3 to 4, treatment-related, all doses, added: enzalutamide 160 mg daily | – | incidence of Dysuria | 0% |
| COc1c(N2C[C@@H]3CCCN[C@@H]3C2)c(F)cc2c(=O)c(C(=O)O)cn(C3CC3)c12 | – | – | healthy volunteers | oral, 400 mg single dose, day 5, 0.25 h | – | QTcI change from baseline | -6.5 ms |
| C[C@@H]1CCO[C@H]2Cn3cc(C(=O)NCc4ccc(F)cc4F)c(=O)c(O)c3C(=O)N12 | – | population PK, post-hoc | children, 10 to <14 kg, plasma | oral, 15 mg dispersible tablet, steady state, geometric mean | – | AUC(0-24) | 53 µg·h/mL |
| CCc1cc(C(=O)NC)c2nccc(N3CCc4c(cc(Cn5ccnc5)cc4-c4cn(C)nc4C(F)(F)F)C3=O)c2c1 | – | – | Sprague Dawley rat | oral, 50 mg/kg once daily, 7 days | reference: vehicle | brain weight change | -1.9% |
| CCCCCNC(=O)N1CCC(CN(Cc2ccc(Cl)cc2)Cc2ccc([N+](=O)[O-])s2)C1 (stereo not shown) | – | – | C57BL/6 mice | 100 mg/kg twice daily, 7 days | – | mean corpuscular haemoglobin | 12.7 ± 0.6 pg |
| CC(=O)N[C@@H](CC(N)=O)C(=O)N[C@@H](CCCNC(=N)N)C(=O)N[C@@H](CC(C)C)C(=O)N[C@H]1CSSC[C@@H](C(=O)N[C@H](C(N)=O)[C@@H](C)O)NC(=O)[C@H](CCCNC(=N)N)NC(=O)[C@H](Cc2c[nH]cn2)NC(=O)[C@H](Cc2cccc3ccccc23)NC(=O)CNC(=O)[C@H](Cc2c[nH]c3ccccc23)NC(=O)[C@H](CC(=O)O)NC(=O)[C@H](CCC(N)=O)NC(=O)[C@H](Cc2cccc3ccccc23)NC(=O)[C@H](C(C)C)NC1=O | – | isocratic RP-HPLC, C18 | 32% acetonitrile, phosphate pH 7.4, 1% TFA | 25 °C | – | retention factor | 7.299 ± 0.005 |
| Cc1cc(O)c2c(c1)C(=O)c1cc(O)cc(O)c1C2=O | HK-2 co-cultured with HepaRG | MTT | – | 33.33 µM, 48 h | reference: untreated control | viability | 81.7 ± 19.4% |
| CCc1nc(C(N)=O)c(Nc2ccc(N3CCC(N4CCN(C)CC4)CC3)c(OC)c2)nc1NC1CCOCC1 | – | – | Japanese patients, plasma | oral, 40 mg, cycle 0 day -2, single dose, mean | – | AUC(0-24) | 0.436 µg·h/mL |
| CC(C(=O)NCC(=O)NCC(CNC(=O)CNC(=O)C(C)N1CCN(CC(=O)[O-])CCN(CC(=O)[O-])CCN(CC(=O)[O-])CC1)(CNC(=O)CNC(=O)C(C)N1CCN(CC(=O)[O-])CCN(CC(=O)[O-])CCN(CC(=O)[O-])CC1)CNC(=O)CNC(=O)C(C)N1CCN(CC(=O)[O-])CCN(CC(=O)[O-])CCN(CC(=O)[O-])CC1)N1CCN(CC(=O)[O-])CCN(CC(=O)[O-])CCN(CC(=O)[O-])CC1.[Gd+3].[Gd+3].[Gd+3].[Gd+3] (stereo not shown) | – | ICP-MS | cynomolgus monkey, feces | 4 days post-injection | reference: dose | cumulative fecal excretion | 0.3% |
| CNCc1ccc(-c2[nH]c3cc(F)cc4c3c2CCNC4=O)cc1 | – | – | human patients | oral, 600 mg twice daily, grade 3 | – | incidence of neutropenia | 11.5% |
| O=C(O)CCC(=O)O.[2H]C([2H])([2H])Oc1cc(C)c2[nH]ccc2c1CN1CC[C@@H](C2CC2)C[C@H]1c1ccc(C(=O)O)cc1 | – | multiple ascending dose | healthy Chinese subjects | 50 mg twice daily | – | subjects with proteinuria TEAE | 0% |
| COc1ccc(NC(=O)c2cnc(N3CCN(c4ccccn4)CC3)nc2N)cc1 | – | – | male rhesus monkey, venous plasma | intravenous, 105 MBq, 30 min | – | parent fraction | 12% |
| N#C[C@@]1(c2ccc3c(N)ncnn23)O[C@H](CO)[C@@H](O)[C@H]1O | – | plasma protein binding | dog plasma | 100 µM | – | bound fraction | 0.0433 |
| COc1ccc2c(=O)n(C)c(-c3ccccc3)nc2c1 | – | – | Sprague-Dawley rat, male, spleen | oral, 30 mg/kg, 0.25 h | reference: spleen over plasma | tissue/plasma ratio | 5.99 |
| CNC(=O)c1ccc(-c2cnc3ncc(Cc4ccc5ncccc5c4)n3n2)cc1F | – | – | Japanese patients | oral, 400 mg, any grade | – | Pyelonephritis dose reduction/interruption | 1% |
| C[C@@H](Nc1cc(F)cc(F)c1)c1cc(C(=O)N(C)C)cc2c(=O)cc(N3CCOCC3)oc12 | – | – | patients with advanced solid tumours | oral, 60 mg twice daily, monotherapy dose-expansion, 5:2 schedule | – | share of patients with dose reduction | 0% |

| SMILES | target or system | assay | test system | conditions | how to read | measurement | result |
| --- | --- | --- | --- | --- | --- | --- | --- |
| CN1C(=O)[C@@H](NC(=O)c2nnc(Cc3ccccc3)[nH]2)COc2cccnc21 | – | – | human, plasma | oral, 200 mg once daily, day 1, geometric mean | – | Cmax | 3130 ng/mL |
| Cn1cc(Nc2nccc(-c3ccc4c(c3)CN(C3COC3)CC[C@H]4NC(=O)c3cn(C(C)(C)C)nn3)n2)cn1 | – | – | human, whole blood | 150 mg twice daily, day 14 | reference: pre-dose baseline | lymphocyte count change | -2.21% |
| COc1c(O)c(C)cc2c1C(=O)c1c(ccc(O)c1O)C2=O | HK-2 co-cultured with HepaRG | MTT | – | 66.67 µM, 48 h | reference: untreated control | viability | 81.5 ± 5.05% |
| Cc1ccc([C@@H]2O[C@H](CO)[C@@H](O)[C@H](O)[C@H]2O)cc1Cc1ccc(-c2ccc(F)cc2)s1 | – | – | human, maintenance hemodialysis patients | oral, 300 mg once daily, steady state, mean | – | trough concentration | 340 µg/L |
| CCCC1CCC(c2ccc(OCC)c(F)c2F)CC1 (stereo not shown) | – | – | rat, fetus | 1000 ng/mL in perfusate, middle dose, mixture of 21 LCMs | – | fetal accumulation | 0.186 ± 0.094 ng/g |
| CCCCCCCCCCCCCCCC(=O)N[C@@H](CCC(=O)NCCCC[C@@H]1NC(=O)[C@H]([C@@H](C)CC)NC(=O)[C@@H](NC(=O)[C@@H]2CCCN2C(=O)[C@H](Cc2ccccc2)NC(=O)[C@H](Cc2c[nH]cn2)NC(=O)[C@@H](NC(=O)[C@H](CC(=O)O)NC(=O)CC(C)C)[C@@H](C)O)CSSC[C@@H](C(=O)N[C@@H](CCCCN)C(N)=O)NC(=O)CNC(=O)[C@H](CCCCN)NC(=O)[C@H](CO)NC(=O)[C@H](CCCNC(=N)N)NC(=O)[C@@H]2CCCN2C(=O)[C@H](CCC(=O)O)NC(=O)[C@H](Cc2ccccc2)NC1=O)C(=O)O | – | – | healthy volunteers, plasma | subcutaneous, 60 mg single, lyophilised formulation | – | Vz/F | 104 ± 84.8 L |
| CC(=O)N[C@@H](CC(N)=O)C(=O)N[C@@H](CCCNC(=N)N)C(=O)N[C@@H](CC(C)C)C(=O)N[C@H]1CSSC[C@@H](C(=O)N[C@H](C(N)=O)[C@@H](C)O)NC(=O)[C@H](CCCNC(=N)N)NC(=O)[C@H](Cc2c[nH]cn2)NC(=O)[C@H](C)NC(=O)CNC(=O)[C@H](Cc2c[nH]c3ccccc23)NC(=O)[C@H](CC(=O)O)NC(=O)[C@H](CCC(N)=O)NC(=O)[C@H](Cc2c[nH]c3ccccc23)NC(=O)[C@H](C(C)C)NC1=O | – | isocratic RP-HPLC, C18 | 32% acetonitrile, phosphate pH 7.4, 1% TFA | 25 °C | – | retention factor | 0.541 ± 0.011 |
| COc1cc(N2CCC3(CCN(C)CC3)CC2)ccc1Nc1ncc(Cl)c(Nc2ccccc2P(C)(C)=O)n1 | – | population PK model | human | oral, fed, final model | reference: fasting | Ka | 58.8% |
| C=CCN1CC(=O)N2[C@@H](Cc3ccc(O)cc3F)C(=O)N(Cc3cccc(N4CC(N5CCN(CC)CC5)C4)n3)C[C@@H]2N1C(=O)NCc1ccccc1 | – | – | advanced solid tumour patients | oral, 100 mg twice daily, grade ≥3, dose-escalation | – | treatment-related decreased appetite | 0% |
| C=CC(=O)N1CCC([C@@H]2CCNc3c(C(N)=O)c(-c4ccc(Oc5ccccc5)cc4)nn32)CC1 | – | – | rat plasma | 2 ng/mL, 4 h, 10 °C, autosampler | reference: nominal concentration | stability relative error | -3.4% |
| O=C(N[C@H](Cc1c[nH]c2ccccc12)C(=O)Nc1ccncc1)c1ccc(N2CCN(c3ccc(F)cc3F)CC2)cc1F | – | – | Swiss Webster mouse, female, brain | oral, 50 mg/kg, 8 h, 20% Kolliphor vehicle | – | concentration | 1260 nM |
| CCn1c(=O)c(-c2cc(NC(=O)Nc3ccccc3)c(F)cc2Br)cc2cnc(NC)cc21 | – | item: nervous system disorders | human, moderate hepatic impairment | oral, 50 mg single dose | – | participants with drug-related TEAE | 0% |
| O=C(NCCCNc1nc(Nc2cccc(CN3CCOCC3)c2)ncc1C1CC1)C1CCC1 | – | PAMPA | PBS | 5 h, pH 7.4 | – | effective permeability | 2.6e-06 cm/s |
| O=C(Nc1nc2cccc(-c3ccc(CN4CCS(=O)(=O)CC4)cc3)n2n1)C1CC1 | – | item: epigastric discomfort | human rheumatoid arthritis patients | oral, 30 mg once daily, 4 weeks, regardless of relatedness | – | treatment-emergent adverse events | 0% |
| CCCCOc1ccc([C@H]2CC[C@H](CCC)CC2)c(F)c1F | – | – | rat, fetus | 10 ng/mL in perfusate, low dose, mixture of 21 LCMs | – | fetal accumulation | 0.737 ± 0.753 ng/g |
| Cl.[2H]C([2H])([2H])CC(=O)c1cnc(NC(=O)C2CC2)cc1Nc1cccc(-c2ncn(C([2H])([2H])[2H])n2)c1OC | – | geometric mean | human | oral, 5 mg single dose, fasted, liquid | – | Vz/F | 186 L |
| C[C@@H](N)C1CCN(S(=O)(=O)c2cccc3cnccc23)CC1 | – | – | healthy volunteers, fasted, plasma | oral, 75 mg | – | Vz/F | 6020 L |

Excerpt of the above:
| SMILES | target or system | assay | test system | conditions | how to read | measurement | result |
| --- | --- | --- | --- | --- | --- | --- | --- |
| Cc1ccc([C@@H]2O[C@H](CO)[C@@H](O)[C@H](O)[C@H]2O)cc1Cc1ccc(-c2ccc(F)cc2)s1 | – | – | human, maintenance hemodialysis patients | oral, 300 mg once daily, steady state, mean | – | trough concentration | 340 µg/L |
| CCCC1CCC(c2ccc(OCC)c(F)c2F)CC1 (stereo not shown) | – | – | rat, fetus | 1000 ng/mL in perfusate, middle dose, mixture of 21 LCMs | – | fetal accumulation | 0.186 ± 0.094 ng/g |
| CCCCCCCCCCCCCCCC(=O)N[C@@H](CCC(=O)NCCCC[C@@H]1NC(=O)[C@H]([C@@H](C)CC)NC(=O)[C@@H](NC(=O)[C@@H]2CCCN2C(=O)[C@H](Cc2ccccc2)NC(=O)[C@H](Cc2c[nH]cn2)NC(=O)[C@@H](NC(=O)[C@H](CC(=O)O)NC(=O)CC(C)C)[C@@H](C)O)CSSC[C@@H](C(=O)N[C@@H](CCCCN)C(N)=O)NC(=O)CNC(=O)[C@H](CCCCN)NC(=O)[C@H](CO)NC(=O)[C@H](CCCNC(=N)N)NC(=O)[C@@H]2CCCN2C(=O)[C@H](CCC(=O)O)NC(=O)[C@H](Cc2ccccc2)NC1=O)C(=O)O | – | – | healthy volunteers, plasma | subcutaneous, 60 mg single, lyophilised formulation | – | Vz/F | 104 ± 84.8 L |
| CC(=O)N[C@@H](CC(N)=O)C(=O)N[C@@H](CCCNC(=N)N)C(=O)N[C@@H](CC(C)C)C(=O)N[C@H]1CSSC[C@@H](C(=O)N[C@H](C(N)=O)[C@@H](C)O)NC(=O)[C@H](CCCNC(=N)N)NC(=O)[C@H](Cc2c[nH]cn2)NC(=O)[C@H](C)NC(=O)CNC(=O)[C@H](Cc2c[nH]c3ccccc23)NC(=O)[C@H](CC(=O)O)NC(=O)[C@H](CCC(N)=O)NC(=O)[C@H](Cc2c[nH]c3ccccc23)NC(=O)[C@H](C(C)C)NC1=O | – | isocratic RP-HPLC, C18 | 32% acetonitrile, phosphate pH 7.4, 1% TFA | 25 °C | – | retention factor | 0.541 ± 0.011 |
| COc1cc(N2CCC3(CCN(C)CC3)CC2)ccc1Nc1ncc(Cl)c(Nc2ccccc2P(C)(C)=O)n1 | – | population PK model | human | oral, fed, final model | reference: fasting | Ka | 58.8% |
